Assay results from different studies.
Each numbered part is a random draw from the data of one study; scales do not carry over between parts.
Chain of UniProt P42336 (whole entry, unmodified, looked up): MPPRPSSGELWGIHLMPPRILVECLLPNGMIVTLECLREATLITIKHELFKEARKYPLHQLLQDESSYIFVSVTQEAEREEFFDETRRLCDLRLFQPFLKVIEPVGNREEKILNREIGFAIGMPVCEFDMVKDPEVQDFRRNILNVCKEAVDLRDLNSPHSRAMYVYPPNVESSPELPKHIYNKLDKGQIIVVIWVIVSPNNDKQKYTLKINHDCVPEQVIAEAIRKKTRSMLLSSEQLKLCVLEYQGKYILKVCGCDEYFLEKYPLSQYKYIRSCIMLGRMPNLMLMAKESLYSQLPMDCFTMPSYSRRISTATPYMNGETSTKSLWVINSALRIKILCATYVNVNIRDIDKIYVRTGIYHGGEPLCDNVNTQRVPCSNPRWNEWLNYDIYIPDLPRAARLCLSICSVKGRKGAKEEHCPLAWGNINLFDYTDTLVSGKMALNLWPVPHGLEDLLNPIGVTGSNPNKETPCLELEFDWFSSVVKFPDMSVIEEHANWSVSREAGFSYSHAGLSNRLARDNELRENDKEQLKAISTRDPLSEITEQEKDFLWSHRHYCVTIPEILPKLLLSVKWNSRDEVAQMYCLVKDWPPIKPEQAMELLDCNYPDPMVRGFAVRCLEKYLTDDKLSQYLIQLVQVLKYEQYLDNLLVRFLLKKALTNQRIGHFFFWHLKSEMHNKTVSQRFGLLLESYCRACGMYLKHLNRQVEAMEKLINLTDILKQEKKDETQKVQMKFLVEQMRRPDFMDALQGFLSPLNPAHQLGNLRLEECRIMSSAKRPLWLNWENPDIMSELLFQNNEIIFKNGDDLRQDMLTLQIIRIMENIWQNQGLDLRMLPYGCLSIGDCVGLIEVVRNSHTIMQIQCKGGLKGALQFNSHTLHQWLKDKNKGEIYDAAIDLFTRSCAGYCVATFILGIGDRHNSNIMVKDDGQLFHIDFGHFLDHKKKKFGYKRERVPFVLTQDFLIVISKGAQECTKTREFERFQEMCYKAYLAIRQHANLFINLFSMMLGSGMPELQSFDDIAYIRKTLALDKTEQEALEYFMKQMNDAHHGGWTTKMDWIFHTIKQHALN
Chain of UniProt P10721 (whole entry, unmodified, looked up): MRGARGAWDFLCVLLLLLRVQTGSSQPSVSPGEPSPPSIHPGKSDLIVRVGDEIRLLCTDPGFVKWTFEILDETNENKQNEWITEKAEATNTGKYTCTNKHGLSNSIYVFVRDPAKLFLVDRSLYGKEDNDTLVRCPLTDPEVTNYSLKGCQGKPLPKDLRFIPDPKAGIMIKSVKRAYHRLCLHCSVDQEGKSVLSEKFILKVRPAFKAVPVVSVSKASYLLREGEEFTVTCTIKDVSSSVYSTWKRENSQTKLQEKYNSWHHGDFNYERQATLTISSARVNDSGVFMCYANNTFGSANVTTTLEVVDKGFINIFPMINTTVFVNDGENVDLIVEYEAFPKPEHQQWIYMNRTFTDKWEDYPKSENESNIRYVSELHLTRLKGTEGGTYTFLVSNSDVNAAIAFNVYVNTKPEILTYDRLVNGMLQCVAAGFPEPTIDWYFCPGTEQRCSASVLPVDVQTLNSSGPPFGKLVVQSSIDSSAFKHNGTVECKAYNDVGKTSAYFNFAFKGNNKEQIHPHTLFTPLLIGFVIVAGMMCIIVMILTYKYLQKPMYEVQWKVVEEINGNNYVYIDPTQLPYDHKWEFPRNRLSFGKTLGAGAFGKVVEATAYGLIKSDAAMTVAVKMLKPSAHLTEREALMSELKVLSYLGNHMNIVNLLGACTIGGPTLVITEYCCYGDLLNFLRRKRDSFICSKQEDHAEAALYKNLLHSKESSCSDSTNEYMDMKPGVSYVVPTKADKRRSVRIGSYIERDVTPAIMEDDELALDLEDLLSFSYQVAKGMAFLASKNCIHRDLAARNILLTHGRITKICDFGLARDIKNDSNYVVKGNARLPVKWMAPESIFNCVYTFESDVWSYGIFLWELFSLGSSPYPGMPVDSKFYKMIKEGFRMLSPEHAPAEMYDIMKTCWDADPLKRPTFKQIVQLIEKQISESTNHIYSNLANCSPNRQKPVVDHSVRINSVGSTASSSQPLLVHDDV
Chain of UniProt P06213 (whole entry, looked up): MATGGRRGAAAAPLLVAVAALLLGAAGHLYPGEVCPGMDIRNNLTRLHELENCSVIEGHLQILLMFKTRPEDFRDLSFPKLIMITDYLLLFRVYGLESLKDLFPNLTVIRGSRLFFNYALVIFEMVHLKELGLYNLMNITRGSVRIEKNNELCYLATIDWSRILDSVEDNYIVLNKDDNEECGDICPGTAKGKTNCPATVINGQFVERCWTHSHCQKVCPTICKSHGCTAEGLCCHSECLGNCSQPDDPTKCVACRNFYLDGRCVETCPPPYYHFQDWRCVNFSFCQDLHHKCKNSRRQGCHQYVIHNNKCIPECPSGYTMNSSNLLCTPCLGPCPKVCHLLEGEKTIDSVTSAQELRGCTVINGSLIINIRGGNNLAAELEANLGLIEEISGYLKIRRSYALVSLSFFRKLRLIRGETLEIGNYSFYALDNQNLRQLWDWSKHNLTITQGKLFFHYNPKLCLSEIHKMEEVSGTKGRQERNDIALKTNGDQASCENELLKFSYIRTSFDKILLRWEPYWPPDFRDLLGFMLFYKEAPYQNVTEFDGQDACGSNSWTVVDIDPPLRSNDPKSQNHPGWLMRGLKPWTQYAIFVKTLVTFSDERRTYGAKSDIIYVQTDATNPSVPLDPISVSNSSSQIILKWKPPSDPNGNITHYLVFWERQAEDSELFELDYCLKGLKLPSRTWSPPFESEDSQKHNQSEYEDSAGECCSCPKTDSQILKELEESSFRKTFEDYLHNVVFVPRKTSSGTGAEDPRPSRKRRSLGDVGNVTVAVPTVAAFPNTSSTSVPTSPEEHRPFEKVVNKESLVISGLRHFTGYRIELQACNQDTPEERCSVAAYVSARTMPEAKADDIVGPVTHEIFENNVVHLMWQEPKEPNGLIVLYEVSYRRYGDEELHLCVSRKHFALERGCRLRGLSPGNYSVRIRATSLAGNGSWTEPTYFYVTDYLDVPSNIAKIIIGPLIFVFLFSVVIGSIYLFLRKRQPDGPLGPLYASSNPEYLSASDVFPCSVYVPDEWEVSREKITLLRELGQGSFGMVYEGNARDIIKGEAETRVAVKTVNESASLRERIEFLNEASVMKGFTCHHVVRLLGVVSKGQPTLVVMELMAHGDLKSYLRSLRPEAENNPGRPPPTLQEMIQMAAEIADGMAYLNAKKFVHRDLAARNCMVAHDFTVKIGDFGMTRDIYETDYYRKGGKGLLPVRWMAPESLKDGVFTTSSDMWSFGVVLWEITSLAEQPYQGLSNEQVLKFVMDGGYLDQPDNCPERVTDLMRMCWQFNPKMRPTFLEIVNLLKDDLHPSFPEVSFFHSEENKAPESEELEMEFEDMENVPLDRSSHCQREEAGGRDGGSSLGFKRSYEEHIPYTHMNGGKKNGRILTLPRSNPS

Set 1
Target: Serine/threonine-protein kinase TAO3 (TAOK3, Homo sapiens, UniProt Q9H2K8)
Chain of UniProt Q9H2K8 (whole entry, looked up): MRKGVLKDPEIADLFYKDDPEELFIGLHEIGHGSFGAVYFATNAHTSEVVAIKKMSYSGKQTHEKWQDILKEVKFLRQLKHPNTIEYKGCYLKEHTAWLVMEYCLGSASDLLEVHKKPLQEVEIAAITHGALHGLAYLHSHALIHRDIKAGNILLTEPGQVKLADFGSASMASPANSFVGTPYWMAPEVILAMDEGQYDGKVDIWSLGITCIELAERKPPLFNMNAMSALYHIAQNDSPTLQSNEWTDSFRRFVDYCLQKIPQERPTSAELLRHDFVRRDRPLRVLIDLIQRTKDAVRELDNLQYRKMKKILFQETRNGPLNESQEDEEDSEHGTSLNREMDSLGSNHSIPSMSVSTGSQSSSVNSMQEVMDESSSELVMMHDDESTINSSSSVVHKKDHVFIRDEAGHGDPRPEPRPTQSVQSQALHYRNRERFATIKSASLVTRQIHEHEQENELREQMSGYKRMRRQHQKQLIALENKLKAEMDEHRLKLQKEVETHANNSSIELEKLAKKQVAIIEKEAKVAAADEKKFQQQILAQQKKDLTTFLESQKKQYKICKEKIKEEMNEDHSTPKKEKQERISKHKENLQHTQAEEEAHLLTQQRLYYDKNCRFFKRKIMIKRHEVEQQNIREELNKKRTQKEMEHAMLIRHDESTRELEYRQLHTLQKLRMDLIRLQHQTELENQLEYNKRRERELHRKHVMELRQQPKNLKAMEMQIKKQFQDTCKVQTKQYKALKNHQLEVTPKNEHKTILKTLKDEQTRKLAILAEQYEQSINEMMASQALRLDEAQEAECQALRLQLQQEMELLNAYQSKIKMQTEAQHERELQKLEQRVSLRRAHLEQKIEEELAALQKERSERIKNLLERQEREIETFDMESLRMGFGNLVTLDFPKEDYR
Read-out: enzyme activity
Mode: inhibitor
Tested at: 0.5 µM
Baseline: control
Structure (SMILES) | remaining activity [%]
NC(=O)c1ccc(N(C(N)=O)c2c(F)cccc2F)nc1-c1ccc(F)cc1F | 95.7
Nc1nccc(-c2c(-c3ccc(F)cc3)ncn2C2CCNCC2)n1 | 95.3
CCCC(=O)Oc1ccc2[nH]c(C(=O)c3cc4ccccc4[nH]3)cc2c1 | 86.7
O=C1NC(=O)C(c2c[nH]c3ccccc23)=C1c1c[nH]c2ccccc12 | 85.2
Cc1cncc2cccc(S(=O)(=O)N3CCCN(C(=O)CN)C[C@@H]3C)c12 | 96.2
O=S(=O)(NCCNC/C=C/c1ccc(Br)cc1)c1cccc2cnccc12 | 95.4
COc1ccc(S(=O)(=O)N(CCO)c2ccccc2CN(C)CC=Cc2ccc(Cl)cc2)cc1 | 91.2
Fc1ccc(-c2nc3n(c2-c2ccncc2)CCS3)cc1 | 98.9
Cc1ccc(NC2=CC(=O)c3sc(C)nc3C2=O)cc1 | 98.9
N#CC(=C(N)Sc1ccc(N)cc1)c1ccccc1C(F)(F)F | 98.6
Oc1ccc(Nc2nc(-c3ccc(Cl)cc3)cs2)cc1 | 101
CC[n+]1c(/C=C/N(C)c2ccccc2)n(-c2ccccc2)c2ccc(-c3nc4ccccc4s3)cc21 | 116
Nc1nc(Nc2ccc(S(N)(=O)=O)cc2)nn1C(=O)c1c(F)cccc1F | 39.9
CCc1[nH]c(-c2ccc(OC)cc2)nc1-c1ccncc1 | 107
CC(C)(C)n1nc(Cc2cccc3ccccc23)c2c(N)ncnc21 | 86
CC#CC(=O)Nc1cc2c(Nc3ccc(F)c(Cl)c3)ncnc2cn1 | 110
Nc1ncnc2c1cnn2-c1ccccc1 | 89.1
CSc1nc(-c2ccnc(N[C@@H](C)c3ccccc3)c2)c(-c2ccc(F)cc2)[nH]1 (racemic) | 91.7
O=C1Cc2c([nH]c3ccc([N+](=O)[O-])cc23)-c2ccccc2N1 | 76.7
Cc1cc(Nc2nc(-c3ccccc3)nc3ccccc23)n[nH]1 | 86.9
CC(=O)c1ccc(N2CCOCC2)cc1O | 98.4

Set 2
Target: Calcium/calmodulin-dependent protein kinase type II subunit alpha (CAMK2A, Homo sapiens, UniProt Q9UQM7)
Chain of UniProt Q9UQM7 (whole entry, looked up): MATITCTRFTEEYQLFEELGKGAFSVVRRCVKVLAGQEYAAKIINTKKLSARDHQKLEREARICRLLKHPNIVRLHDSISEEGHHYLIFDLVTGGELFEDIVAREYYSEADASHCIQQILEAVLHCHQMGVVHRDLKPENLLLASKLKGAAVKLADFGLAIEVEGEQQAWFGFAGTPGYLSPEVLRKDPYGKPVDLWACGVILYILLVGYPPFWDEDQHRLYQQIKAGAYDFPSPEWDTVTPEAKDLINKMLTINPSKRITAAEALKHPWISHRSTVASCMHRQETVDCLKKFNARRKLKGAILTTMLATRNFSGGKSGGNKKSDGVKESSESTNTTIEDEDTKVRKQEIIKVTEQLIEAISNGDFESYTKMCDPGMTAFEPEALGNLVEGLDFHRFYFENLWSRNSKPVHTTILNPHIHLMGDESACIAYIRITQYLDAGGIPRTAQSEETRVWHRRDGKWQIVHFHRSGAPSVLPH
Read-out: enzyme activity
Mode: inhibitor
Tested at: 10 µM
SMILES | inhibition [%]
O=C(O)c1cc(O)cc(O)c1 | 10
O=C(O)C1=CO[C@@H](O[C@@H]2O[C@H](CO)[C@@H](O)[C@H](O)[C@H]2O)[C@@H]2C(CO)=CC[C@H]12 | -22
NC(COP(=O)(O)O)C(=O)O (racemic) | -35
COc1ccc(/C=C/c2cc(O)cc(O[C@@H]3O[C@H](CO)[C@@H](O)[C@H](O)[C@H]3O)c2)cc1O | -48
COc1cc(O)c2c(c1)O[C@H](c1ccccc1)CC2=O | 1
CCCCN(CCCC)C(=O)CN1C[C@H](c2ccc3c(c2)OCO3)[C@@H](C(=O)O)[C@@H]1c1ccc(OC)cc1 | -13
C[C@H]1CC[C@]2(C(=O)O)CC[C@]3(C)C(=CC[C@@H]4[C@@]5(C)CC[C@H](O[C@@H]6OC[C@@H](O)[C@H](O)[C@H]6O[C@@H]6O[C@H](CO)[C@@H](O)[C@H](O)[C@H]6O)C(C)(C)[C@@H]5CC[C@]43C)[C@@H]2[C@]1(C)O | -24
Nc1ccn([C@@H]2CS[C@H](CO)O2)c(=O)n1 | -3
CN(C)c1nc2c(ncn2[C@@H]2O[C@H](CO)[C@@H](O)[C@H]2O)c(=O)[nH]1 | -25
CCOc1ccc(C[C@H]2NC(=O)CCSSC[C@@H](C(=O)N3CCC[C@H]3C(=O)N[C@@H](CCCN)C(=O)NCC(N)=O)NC(=O)[C@H](CC(N)=O)NC(=O)[C@H]([C@@H](C)O)NC(=O)[C@H]([C@@H](C)CC)NC2=O)cc1 | -10
N=c1ccn2c(n1)O[C@H]1[C@H](O)[C@@H](CO)O[C@H]12 | 14
O=C(/C=C/c1ccc(O)c(O)c1)OC1(C(=O)O)C[C@@H](O)C(O)[C@H](O)C1 (stereo partly shown) | 34

Set 3
Compound: CS(=O)(=O)c1cc(C2(NC(=O)c3cncc4c3cnn4-c3ccc(F)cc3)CC2)ccn1
Read-out: cell-free assay
Method: competition with immobilised ligand
Tested at: 1 µM
target | remaining binding [%]
IRAK4 (Homo sapiens, UniProt Q9NWZ3) | 100
MTOR (Homo sapiens, UniProt P42345) | 100
EGFR (Homo sapiens, UniProt P00533, del747-750/T751S) | 100
STK17A (Homo sapiens, UniProt Q9UEE5) | 84
FGFR2 (Homo sapiens, UniProt P21802) | 100
FES (Homo sapiens, UniProt P07332) | 100
EGFR (Homo sapiens, UniProt P00533, G719C) | 100
MATK (Homo sapiens, UniProt P42679) | 100
Insulin receptor (INSR, Homo sapiens, UniProt P06213) | 100
EGFR (Homo sapiens, UniProt P00533, L858R/T790M) | 81
PIK3CA (Homo sapiens, UniProt P42336, H1047Y) | 100
PIK3CA (Homo sapiens, UniProt P42336) | 100
HASPIN (Homo sapiens, UniProt Q8TF76) | 90
FLT3 (Homo sapiens, UniProt P36888, D835Y) | 98
RIPK1 (Homo sapiens, UniProt Q13546) | 100
ROS1 (Homo sapiens, UniProt P08922) | 100
FLT3 (Homo sapiens, UniProt P36888, K663Q) | 100
MET (Homo sapiens, UniProt P08581, Y1235D) | 91
ALK (Homo sapiens, UniProt Q9UM73, L1196M) | 100
MAP3K14 (Homo sapiens, UniProt Q99558) | 61
IRAK3 (Homo sapiens, UniProt Q9Y616) | 59
ERBB3 (Homo sapiens, UniProt P21860) | 100
PIM2 (Homo sapiens, UniProt Q9P1W9) | 100
KIT (Homo sapiens, UniProt P10721, L576P) | 100
RET (Homo sapiens, UniProt P07949, V804L) | 100

Set 4
Compound: CC(=O)N[C@@H](Cc1c[nH]c2ccccc12)C(=O)N[C@@H](CCC(=O)C=[N+]=[N-])C(=O)OC(C)C
Sample: EL4 tumour
Dose: dose not given
Baseline: vehicle
method | measured | species | log2 fold change
– | glutamate | mouse, EL4 tumour-bearing | -0.0667
– | N-acetylglucosamine 6-phosphate | mouse, EL4 tumour-bearing | 0.367
– | hydroxy-N6,N6,N6-trimethyllysine | Mus musculus | 0.0877
– | dimethylglycine | mouse, EL4 tumour-bearing | -0.113
– | AMP | mouse, EL4 tumour-bearing | -0.0068
– | homoserine | mouse, EL4 tumour-bearing | -0.705
– | S-adenosylhomocysteine | Mus musculus | -1.18
– | sucrose | mouse, EL4 tumour-bearing | 1.7
– | N-acetylglutamine | mouse, EL4 tumour-bearing | 0.0529
– | N-acetylthreonine | mouse, EL4 tumour-bearing | 0.118
– | 1-methyl-5-imidazoleacetate | mouse, EL4 tumour-bearing | -0.39
metabolomics | ribulose/xylulose 5-phosphate | mouse | 1.58
– | uridine | mouse, EL4 tumour-bearing | -0.272
– | 2'-deoxyadenosine | mouse, EL4 tumour-bearing | -0.133
– | S-1-pyrroline-5-carboxylate | mouse, EL4 tumour-bearing | 0.137
